Results gathered from unrelated publications.
A part holds a random share of what one study measured. “And” joins repeats or separate records; there may be more than shown.
UniProt Q9NYL2, sequence (whole entry, looked up): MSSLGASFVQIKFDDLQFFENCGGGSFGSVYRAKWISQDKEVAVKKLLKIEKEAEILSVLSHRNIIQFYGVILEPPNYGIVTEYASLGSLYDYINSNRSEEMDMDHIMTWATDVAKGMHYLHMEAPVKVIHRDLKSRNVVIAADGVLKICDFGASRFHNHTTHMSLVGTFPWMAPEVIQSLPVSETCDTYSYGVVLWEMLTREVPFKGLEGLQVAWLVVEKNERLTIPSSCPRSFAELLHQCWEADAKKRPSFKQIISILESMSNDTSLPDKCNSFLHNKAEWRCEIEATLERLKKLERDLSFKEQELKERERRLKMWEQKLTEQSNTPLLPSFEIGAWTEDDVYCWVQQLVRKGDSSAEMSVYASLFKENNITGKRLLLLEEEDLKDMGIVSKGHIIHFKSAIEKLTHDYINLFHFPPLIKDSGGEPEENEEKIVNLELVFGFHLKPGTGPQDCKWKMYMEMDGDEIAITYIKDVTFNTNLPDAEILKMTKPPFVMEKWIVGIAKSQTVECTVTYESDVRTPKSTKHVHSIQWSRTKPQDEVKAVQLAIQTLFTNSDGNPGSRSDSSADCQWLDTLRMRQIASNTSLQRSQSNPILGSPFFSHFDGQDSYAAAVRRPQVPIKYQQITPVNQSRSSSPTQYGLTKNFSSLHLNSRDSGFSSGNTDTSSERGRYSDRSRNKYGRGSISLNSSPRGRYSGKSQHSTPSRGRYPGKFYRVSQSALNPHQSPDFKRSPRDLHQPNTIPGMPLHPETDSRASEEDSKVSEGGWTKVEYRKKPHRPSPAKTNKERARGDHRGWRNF
UniProt P49760, sequence (whole entry, looked up): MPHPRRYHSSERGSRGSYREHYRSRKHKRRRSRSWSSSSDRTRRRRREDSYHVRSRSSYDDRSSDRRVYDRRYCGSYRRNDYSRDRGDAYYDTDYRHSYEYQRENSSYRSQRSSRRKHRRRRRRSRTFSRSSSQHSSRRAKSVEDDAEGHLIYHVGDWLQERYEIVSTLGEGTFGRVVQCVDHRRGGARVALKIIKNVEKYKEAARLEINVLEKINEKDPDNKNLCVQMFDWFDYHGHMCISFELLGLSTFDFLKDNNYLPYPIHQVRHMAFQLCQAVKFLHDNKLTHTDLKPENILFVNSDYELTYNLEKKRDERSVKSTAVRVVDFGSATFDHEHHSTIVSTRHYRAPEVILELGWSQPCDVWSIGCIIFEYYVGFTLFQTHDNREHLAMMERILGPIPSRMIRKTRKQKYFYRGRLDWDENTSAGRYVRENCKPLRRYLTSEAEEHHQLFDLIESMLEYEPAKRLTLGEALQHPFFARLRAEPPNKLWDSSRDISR
UniProt Q04759, sequence (whole entry, looked up): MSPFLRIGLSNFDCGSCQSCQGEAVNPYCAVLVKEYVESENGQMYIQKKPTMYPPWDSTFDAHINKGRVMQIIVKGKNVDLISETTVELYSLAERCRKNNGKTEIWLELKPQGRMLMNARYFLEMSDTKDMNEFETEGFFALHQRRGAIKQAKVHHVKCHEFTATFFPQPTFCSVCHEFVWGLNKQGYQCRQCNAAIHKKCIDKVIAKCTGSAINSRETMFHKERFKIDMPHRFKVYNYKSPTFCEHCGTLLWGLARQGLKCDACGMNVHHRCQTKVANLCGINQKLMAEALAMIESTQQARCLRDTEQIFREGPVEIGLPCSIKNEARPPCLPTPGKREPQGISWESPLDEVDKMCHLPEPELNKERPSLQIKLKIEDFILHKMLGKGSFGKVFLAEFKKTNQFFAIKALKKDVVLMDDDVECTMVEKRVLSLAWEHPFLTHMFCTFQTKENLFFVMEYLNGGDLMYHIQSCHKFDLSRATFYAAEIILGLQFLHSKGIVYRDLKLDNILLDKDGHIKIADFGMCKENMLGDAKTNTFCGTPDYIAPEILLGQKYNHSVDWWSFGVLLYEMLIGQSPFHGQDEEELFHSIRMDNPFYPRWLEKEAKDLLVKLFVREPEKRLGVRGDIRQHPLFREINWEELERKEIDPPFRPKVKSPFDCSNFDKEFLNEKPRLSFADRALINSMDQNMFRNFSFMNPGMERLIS
UniProt Q14012, sequence (whole entry, looked up): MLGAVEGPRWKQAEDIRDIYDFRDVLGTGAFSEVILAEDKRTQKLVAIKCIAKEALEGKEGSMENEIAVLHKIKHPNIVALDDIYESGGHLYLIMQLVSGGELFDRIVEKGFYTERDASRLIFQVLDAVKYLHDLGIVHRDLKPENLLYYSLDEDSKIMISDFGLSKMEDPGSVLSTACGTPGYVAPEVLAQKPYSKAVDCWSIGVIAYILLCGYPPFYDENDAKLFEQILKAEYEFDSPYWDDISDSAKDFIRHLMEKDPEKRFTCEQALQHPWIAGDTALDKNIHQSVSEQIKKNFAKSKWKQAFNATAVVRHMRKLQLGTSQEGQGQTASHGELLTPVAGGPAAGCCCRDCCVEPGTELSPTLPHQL

Study 1
Structure (SMILES): CCS(=O)(=O)c1cc2cc(C[C@](O)(CC(C)(C)c3ccc(F)cc3C(N)=O)C(F)(F)F)[nH]c2cn1
Observed: cell-free assay
Method: competition with immobilised ligand
Tested at: 1 µM
It gave 97% for remaining binding (Mitogen-activated protein kinase 7 (MAPK7, Homo sapiens, UniProt Q13164)).
Protein kinase C theta type (PRKCQ, Homo sapiens, UniProt Q04759) — remaining binding: 87%.
It gave 100% for remaining binding (Serine/threonine-protein kinase Nek2 (NEK2, Homo sapiens, UniProt P51955)).
It gave 100% for remaining binding (Serine/threonine-protein kinase Nek3 (NEK3, Homo sapiens, UniProt P51956)).
The remaining binding was 100% (Dual specificity protein kinase CLK2 (CLK2, Homo sapiens, UniProt P49760)).
Macrophage colony-stimulating factor 1 receptor, autoinhibited (CSF1R, Homo sapiens, UniProt P07333) — remaining binding: 100%.
The remaining binding was 100% (Phosphatidylinositol 4-phosphate 5-kinase type-1 gamma (PIP5K1C, Homo sapiens, UniProt O60331)).
For Homeodomain-interacting protein kinase 2 (HIPK2, Homo sapiens, UniProt Q9H2X6): remaining binding read 100%.
Aurora kinase B (AURKB, Homo sapiens, UniProt Q96GD4) — remaining binding: 92%.
It gave 100% for remaining binding (Myosin-IIIb (MYO3B, Homo sapiens, UniProt Q8WXR4)).
For Serine/threonine-protein kinase LATS1 (LATS1, Homo sapiens, UniProt O95835): remaining binding read 98%.
The remaining binding was 91% (Serine/threonine-protein kinase 38 (STK38, Homo sapiens, UniProt Q15208)).
For Cyclin-dependent kinase 15 (CDK15, Homo sapiens, UniProt Q96Q40): remaining binding read 88%.
It gave 100% for remaining binding (Serine/threonine-protein kinase Sgk1 (SGK1, Homo sapiens, UniProt O00141)).
It gave 100% for remaining binding (Activin receptor type-1B (ACVR1B, Homo sapiens, UniProt P36896)).
Bone morphogenetic protein receptor type-1A (BMPR1A, Homo sapiens, UniProt P36894) — remaining binding: 100%.
The remaining binding was 81% (Phosphatidylinositol 4,5-bisphosphate 3-kinase catalytic subunit alpha isoform (PIK3CA, Homo sapiens, UniProt P42336)).

Study 2
SMILES: C[C@H]1CC[C@H](n2c3cnccc3c3cnc(Nc4ccc5c(n4)CCN(C(=O)CO)C5)nc32)CC1
Tested at: 1 µM
For Ephrin type-A receptor 3 (EPHA3, Homo sapiens, UniProt P29320); cell-free assay, competition with immobilised ligand: remaining binding read 77%.
Muscle, skeletal receptor tyrosine-protein kinase (MUSK, Homo sapiens, UniProt O15146); binding, competition with immobilised ligand — remaining binding: 67%.
The remaining binding was 0.6% (Macrophage colony-stimulating factor 1 receptor (CSF1R, Homo sapiens, UniProt P07333); cell-free assay, competition with immobilised ligand).
It gave 3.8% for remaining binding (Phosphatidylinositol 5-phosphate 4-kinase type-2 gamma (PIP4K2C, Homo sapiens, UniProt Q8TBX8); binding).
For Ephrin type-A receptor 2 (EPHA2, Homo sapiens, UniProt P29317); cell-free assay, competition with immobilised ligand: remaining binding read 86%.
For Receptor-type tyrosine-protein kinase FLT3 (FLT3, Homo sapiens, UniProt P36888); binding, competition with immobilised ligand: remaining binding read 0.25%.
The remaining binding was 44% (Vascular endothelial growth factor receptor 3 (FLT4, Homo sapiens, UniProt P35916); cell-free assay, competition with immobilised ligand).
The remaining binding was 100% (Serine/threonine-protein kinase 33 (STK33, Homo sapiens, UniProt Q9BYT3); binding, competition with immobilised ligand).
The remaining binding was 68% (MAP kinase-interacting serine/threonine-protein kinase 1 (MKNK1, Homo sapiens, UniProt Q9BUB5); binding, competition with immobilised ligand).
For Mitogen-activated protein kinase kinase kinase 20 (MAP3K20, Homo sapiens, UniProt Q9NYL2); binding, competition with immobilised ligand: remaining binding read 100%.
The remaining binding was 24% (Serine/threonine-protein kinase 36 (STK36, Homo sapiens, UniProt Q9NRP7); binding, competition with immobilised ligand).

Study 3
Target: DNA polymerase theta, ATPase domain (POLQ, Homo sapiens, UniProt O75417)
UniProt O75417, sequence (whole entry, unmodified, looked up): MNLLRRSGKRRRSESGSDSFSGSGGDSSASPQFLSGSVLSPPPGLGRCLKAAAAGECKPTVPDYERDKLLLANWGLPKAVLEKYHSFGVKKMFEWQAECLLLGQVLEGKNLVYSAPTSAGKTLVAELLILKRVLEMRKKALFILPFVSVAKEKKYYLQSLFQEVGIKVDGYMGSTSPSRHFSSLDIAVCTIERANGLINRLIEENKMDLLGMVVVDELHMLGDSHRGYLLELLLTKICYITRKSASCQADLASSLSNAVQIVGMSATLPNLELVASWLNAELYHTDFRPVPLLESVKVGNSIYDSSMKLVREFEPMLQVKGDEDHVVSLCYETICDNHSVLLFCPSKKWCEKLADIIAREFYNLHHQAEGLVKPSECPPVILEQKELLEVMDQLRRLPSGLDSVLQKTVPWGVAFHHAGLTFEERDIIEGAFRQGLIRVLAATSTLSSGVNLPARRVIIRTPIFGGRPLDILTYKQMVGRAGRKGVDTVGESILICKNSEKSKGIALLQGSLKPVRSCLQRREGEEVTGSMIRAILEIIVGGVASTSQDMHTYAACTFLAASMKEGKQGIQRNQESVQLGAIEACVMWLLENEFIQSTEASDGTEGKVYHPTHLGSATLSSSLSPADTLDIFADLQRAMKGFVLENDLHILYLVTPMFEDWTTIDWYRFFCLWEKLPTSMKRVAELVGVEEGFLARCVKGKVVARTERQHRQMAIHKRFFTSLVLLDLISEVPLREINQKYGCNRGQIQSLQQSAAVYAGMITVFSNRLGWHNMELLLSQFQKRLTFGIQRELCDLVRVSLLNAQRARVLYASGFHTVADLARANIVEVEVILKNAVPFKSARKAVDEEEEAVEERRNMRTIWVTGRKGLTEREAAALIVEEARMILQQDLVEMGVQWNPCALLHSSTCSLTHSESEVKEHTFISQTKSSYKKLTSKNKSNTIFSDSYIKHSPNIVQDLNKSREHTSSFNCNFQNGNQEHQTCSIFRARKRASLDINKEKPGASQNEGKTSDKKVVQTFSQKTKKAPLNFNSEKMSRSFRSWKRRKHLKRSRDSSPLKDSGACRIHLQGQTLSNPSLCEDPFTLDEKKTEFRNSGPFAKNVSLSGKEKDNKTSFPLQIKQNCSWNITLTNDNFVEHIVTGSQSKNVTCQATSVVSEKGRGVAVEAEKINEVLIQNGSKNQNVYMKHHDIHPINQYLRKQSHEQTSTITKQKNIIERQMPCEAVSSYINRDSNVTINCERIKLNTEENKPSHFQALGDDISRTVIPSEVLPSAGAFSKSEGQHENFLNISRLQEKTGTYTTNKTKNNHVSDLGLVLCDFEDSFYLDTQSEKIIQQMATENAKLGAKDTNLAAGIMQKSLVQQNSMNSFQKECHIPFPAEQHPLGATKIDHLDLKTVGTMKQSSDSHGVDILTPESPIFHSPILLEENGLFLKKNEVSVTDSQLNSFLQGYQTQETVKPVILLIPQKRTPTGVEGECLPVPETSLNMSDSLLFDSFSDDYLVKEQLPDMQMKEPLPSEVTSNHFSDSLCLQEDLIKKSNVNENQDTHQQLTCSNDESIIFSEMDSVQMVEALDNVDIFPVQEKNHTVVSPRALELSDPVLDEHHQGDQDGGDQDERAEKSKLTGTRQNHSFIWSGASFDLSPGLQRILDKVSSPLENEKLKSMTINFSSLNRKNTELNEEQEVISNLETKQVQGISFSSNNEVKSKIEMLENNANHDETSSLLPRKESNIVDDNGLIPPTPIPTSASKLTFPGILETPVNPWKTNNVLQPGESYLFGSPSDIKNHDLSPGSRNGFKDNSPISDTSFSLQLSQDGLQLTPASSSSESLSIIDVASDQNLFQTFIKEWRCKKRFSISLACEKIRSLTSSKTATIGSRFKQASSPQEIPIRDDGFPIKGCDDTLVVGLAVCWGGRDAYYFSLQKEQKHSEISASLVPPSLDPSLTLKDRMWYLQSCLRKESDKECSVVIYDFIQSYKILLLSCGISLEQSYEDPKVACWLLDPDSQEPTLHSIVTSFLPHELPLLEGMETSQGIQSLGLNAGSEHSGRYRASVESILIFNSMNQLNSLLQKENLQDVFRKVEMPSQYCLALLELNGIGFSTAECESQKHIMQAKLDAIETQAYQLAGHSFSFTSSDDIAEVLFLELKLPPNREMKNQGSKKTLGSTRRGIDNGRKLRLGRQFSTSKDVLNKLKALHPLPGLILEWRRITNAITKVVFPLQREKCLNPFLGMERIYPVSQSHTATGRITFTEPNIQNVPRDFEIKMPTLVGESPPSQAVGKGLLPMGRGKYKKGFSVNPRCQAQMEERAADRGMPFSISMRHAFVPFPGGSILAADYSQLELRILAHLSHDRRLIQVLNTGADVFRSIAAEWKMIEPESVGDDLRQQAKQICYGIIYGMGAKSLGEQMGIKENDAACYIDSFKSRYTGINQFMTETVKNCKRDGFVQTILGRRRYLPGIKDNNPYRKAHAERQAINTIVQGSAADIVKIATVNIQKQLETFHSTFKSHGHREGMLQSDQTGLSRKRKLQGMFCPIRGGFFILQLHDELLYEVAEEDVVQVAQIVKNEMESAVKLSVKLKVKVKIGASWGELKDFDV
Observed: enzyme activity
Mode: inhibitor
Tested at: 77 µM
Relative to: untreated
For C[N+](C)(C)CCOC(=O)CCC(=O)OCC[N+](C)(C)C, the remaining activity was 97%.
N=C(N)NCCC[C@H](N)C(=O)O gave a remaining activity of 94.1%.
With CC1(C)O[C@@H]2C[C@H]3[C@@H]4CCC5=CC(=O)C=C[C@]5(C)[C@H]4[C@@H](O)C[C@]3(C)[C@]2(C(=O)CO)O1 the remaining activity was 101%.
Cc1c(Nc2ncccc2C(=O)O)cccc1C(F)(F)F gave a remaining activity of 95.6% and 90.8%.
With CN(C)CCN(Cc1ccccc1)c1ccccn1 the remaining activity was 98.7%.
The remaining activity of Cc1cc(Nc2cc(N3CCN(C)CC3)nc(Sc3ccc(NC(=O)C4CC4)cc3)n2)n[nH]1 is reported as 96.3% and 103% and 99.9% and 102%.
CCCCc1ncc(/C=C(\Cc2cccs2)C(=O)O)n1Cc1ccc(C(=O)O)cc1 gave a remaining activity of 90.2% and 88.1%.
C[N+](C)(C)CC(O)CC(=O)[O-] (racemic) has a remaining activity of 83.6%.
For Cc1cc(NC2CCCCC2)nc(-n2nc(C)cc2C)n1, the remaining activity was 101%.
For C[C@@H](CN1CC(=O)NC(=O)C1)N1CC(=O)NC(=O)C1, the remaining activity was 93.3%.
CCCCC#Cc1nc(NC)c2ncn([C@@H]3O[C@H](CO)[C@@H](O)[C@H]3O)c2n1 gave a remaining activity of 96.6%.

Study 4
SMILES: O=C(c1cc2cc(O)ccc2[nH]1)c1cc2cc(O)ccc2[nH]1
Observed: enzyme activity
Mode: inhibitor
Tested at: 0.5 µM
Relative to: control
It gave 76.3% for remaining activity (Tyrosine-protein kinase receptor TYRO3 (TYRO3, Homo sapiens, UniProt Q06418)).
For Tyrosine-protein kinase JAK1 (JAK1, Homo sapiens, UniProt P23458): remaining activity read 98.7%.
For Vascular endothelial growth factor receptor 1 (FLT1, Homo sapiens, UniProt P17948): remaining activity read 81.3%.
The remaining activity was 37.7% (Ribosomal protein S6 kinase alpha-3 (RPS6KA3, Homo sapiens, UniProt P51812)).
It gave 78.3% for remaining activity (Serine/threonine-protein kinase SIK2 (SIK2, Homo sapiens, UniProt Q9H0K1)).
For Muscle, skeletal receptor tyrosine-protein kinase (MUSK, Homo sapiens, UniProt O15146): remaining activity read 55.1%.
The remaining activity was 94.6% (Serine/threonine-protein kinase PAK 1 (PAK1, Homo sapiens, UniProt Q13153)).
Calcium/calmodulin-dependent protein kinase type 1 (CAMK1, Homo sapiens, UniProt Q14012) — remaining activity: 97.4%.
SRSF protein kinase 1 (SRPK1, Homo sapiens, UniProt Q96SB4) — remaining activity: 92.2%.
Serine/threonine-protein kinase Sgk2 (SGK2, Homo sapiens, UniProt Q9HBY8) — remaining activity: 94.3%.
For Protein kinase C theta type (PRKCQ, Homo sapiens, UniProt Q04759): remaining activity read 92.1%.
For Insulin-like growth factor 1 receptor (IGF1R, Homo sapiens, UniProt P08069): remaining activity read 103%.
It gave 105% for remaining activity (Tyrosine-protein kinase Tec (TEC, Homo sapiens, UniProt P42680)).
Mitogen-activated protein kinase kinase kinase 20 (MAP3K20, Homo sapiens, UniProt Q9NYL2) — remaining activity: 34.3%.
Casein kinase I isoform delta (CSNK1D, Homo sapiens, UniProt P48730) — remaining activity: 92.5%.
The remaining activity was 82.1% (Dual specificity protein kinase CLK1 (CLK1, Homo sapiens, UniProt P49759)).
It gave 74.4% for remaining activity (Serine/threonine-protein kinase PAK 6 (PAK6, Homo sapiens, UniProt Q9NQU5)).
Ephrin type-A receptor 2 (EPHA2, Homo sapiens, UniProt P29317) — remaining activity: 101%.
Calcium/calmodulin-dependent protein kinase kinase 1 (CAMKK1, Homo sapiens, UniProt Q8N5S9) — remaining activity: 63.3%.
The remaining activity was 88.4% (Casein kinase I isoform epsilon (CSNK1E, Homo sapiens, UniProt P49674)).
For Dual specificity protein kinase CLK2 (CLK2, Homo sapiens, UniProt P49760): remaining activity read 105%.
It gave 65% for remaining activity (Cyclin-dependent kinase 2, with cyclin E (CDK2, Homo sapiens, UniProt P24941)).

A few entries again (study 3):
With CC1(C)O[C@@H]2C[C@H]3[C@@H]4CCC5=CC(=O)C=C[C@]5(C)[C@H]4[C@@H](O)C[C@]3(C)[C@]2(C(=O)CO)O1 the remaining activity was 101%.
The remaining activity of Cc1cc(Nc2cc(N3CCN(C)CC3)nc(Sc3ccc(NC(=O)C4CC4)cc3)n2)n[nH]1 is reported as 96.3% and 103% and 99.9% and 102%.
Cc1c(Nc2ncccc2C(=O)O)cccc1C(F)(F)F gave a remaining activity of 95.6% and 90.8%.
CCCCc1ncc(/C=C(\Cc2cccs2)C(=O)O)n1Cc1ccc(C(=O)O)cc1 gave a remaining activity of 90.2% and 88.1%.
For Cc1cc(NC2CCCCC2)nc(-n2nc(C)cc2C)n1, the remaining activity was 101%.
CCCCC#Cc1nc(NC)c2ncn([C@@H]3O[C@H](CO)[C@@H](O)[C@H]3O)c2n1 gave a remaining activity of 96.6%.
N=C(N)NCCC[C@H](N)C(=O)O gave a remaining activity of 94.1%.
